Literature values, collected from citations in different studies.
Protocols differ between the studies behind these lines. ± marks the error that the study gave.
Cell line: A549

SMILES = CNc1nc(C)c(C(=O)/C=C/c2ccc(O)cc2)s1; assay = cell growth; measurement = IC50; value = 16.3 µM
SMILES = [Cl-].[Cl-].[Ru+2].c1ccc(-c2ccccn2)nc1.c1ccc(-c2ccccn2)nc1.c1cnc2c(c1)ccc1cccnc12; conditions = dark; measurement = IC50; value = > 100 µM
SMILES = CCC1=C(O)c2c(oc(-c3ccc4ccccc4c3)cc2=O)C(CC)(CC)C1=O; assay = cell growth, SRB; measurement = IC50; value = 1.16 µM
SMILES = CSCc1ccccn1.[Cl-].[Cl-].[Ru+2].c1ccc(-c2ccccn2)nc1.c1ccc(-c2ccccn2)nc1; conditions = added: green light 19 J/cm2; how to read = relative to: dark EC50 over light EC50; measurement = phototoxicity index; value = 5.5
SMILES = COc1cc(-n2cc(-c3cc(-c4nc(-c5cc([N+](=O)[O-])cc([N+](=O)[O-])c5)no4)[nH]n3)nn2)cc(OC)c1OC; measurement = IC50; value = 0.45 ± 0.023 µM
SMILES = CC1=C(CO)C(=O)O[C@@H]([C@@H](C)[C@H]2CC[C@H]3[C@@H]4C[C@H]5O[C@]56[C@@H](O)C=CC(=O)[C@]6(C)[C@H]4CC[C@]23C)C1; assay = cell growth; measurement = IC50; value = 0.04 µM
SMILES = CC1(C)CC(=O)C2=C(C1)OC(N)=C(C#N)C2c1ccc(-n2ccnc2)cc1 (stereo not drawn); assay = cell growth; measurement = IC50; value = 0.23 ± 0.12 µM
SMILES = CCOC(=O)C1=C(CSC(=S)N(C2CCCCC2)C2CCCCC2)N(C)C(=O)NC1c1ccccc1 (stereo not drawn); conditions = concentration not given; how to read = relative to: untreated; measurement = early apoptotic cells; value = 3.27%
SMILES = Cc1nc(-c2nc(-c3ccc(NC(=O)Cn4cc(-c5cc([N+](=O)[O-])cc([N+](=O)[O-])c5)nn4)cc3)no2)c(C)o1; measurement = IC50; value = 0.19 µM
SMILES = CSCc1ccccn1.[Cl-].[Cl-].[Ru+2].c1ccc(-c2ccnc3c2ccc2c(-c4ccccc4)ccnc23)cc1.c1ccc(-c2ccnc3c2ccc2c(-c4ccccc4)ccnc23)cc1; conditions = added: green light 19 J/cm2; how to read = relative to: dark EC50 over light EC50; measurement = phototoxicity index; value = 5.5
SMILES = CCC1=C(O)c2c(oc(-c3cc4ccccc4s3)cc2=O)C(CC)(CC)C1=O; assay = cell growth, SRB; measurement = IC50; value = 14 µM
SMILES = c1ccc(Cn2cc(COc3ccc(-c4nc5ccc(C6=NCCN6)cc5[nH]4)cc3)nn2)cc1; conditions = concentration not given; measurement = early apoptotic cells increase; value = 27%
SMILES = CCN1C(=O)C2CCC(O[Si](c3ccccc3)(c3ccccc3)C(C)(C)C)CC2C1=O (stereo not drawn); measurement = IC50; value = 19 µM
SMILES = Nc1nc2cc(CC[C@H]3C[C@@H](n4ccc5c(N)ncnc54)[C@H](O)[C@@H]3O)ccc2cc1Br; assay = nuclear arginine dimethylation, inhibitor, immunohistochemistry; measurement = IC50; value = 0.0002 µM
SMILES = CCC1=C(O)c2c(oc(-c3ccc4cc(OC)ccc4c3)cc2=O)C(CC)(CC)C1=O; assay = cell growth, SRB; measurement = IC50; value = 16.8 µM

For quick reference, copied from above:
SMILES = CCC1=C(O)c2c(oc(-c3cc4ccccc4s3)cc2=O)C(CC)(CC)C1=O; assay = cell growth, SRB; measurement = IC50; value = 14 µM
